Measurements gathered from unrelated publications.
Lines come from different studies, so protocols differ. “And” joins repeats or separate records; there may be more than shown. Numbers after ± are the reported error.

Compound = CC(C)C[C@H](NC(=O)[C@H](CCC1CCCCC1)NC(=O)[C@@H]1CCCN1C(=O)c1ccc(F)cc1)C(=O)NC(C)(C)C(=O)N[C@@H](CC(C)C)C(=O)N[C@@H](CC(C)C)C(=O)NC(C)(C)C(=O)NC(C)(C)C(=O)NCCC(=O)NC1(CN(C)C)CCC1; test system = small unilamellar vesicles; setting = concentration not given; endpoint = calcein leakage; result = 24.4%
Compound = Clc1cc2c(cc1Cl)Oc1cc(Cl)c(Cl)cc1O2; assay = RNA-Seq, item: Tbxa2r; test system = Sprague-Dawley rat, female, liver; setting = 10 µg/kg; scale = baseline: vehicle; endpoint = mRNA fold change; result = 2.1 fold
Compound = Cc1nc(Nc2ccc(CC(=O)O)cc2)nc(Nc2ccc(F)c(C(F)(F)F)c2)c1C; test system = mice, chronic ethanol plus binge, liver; setting = intraperitoneal, 0.3 mg/kg daily, ethanol diet 4 weeks, dosed last two; scale = baseline: vehicle; endpoint = Oil Red O staining; result = decreased
Compound = C[C@]1(CO)Cc2ncn(-c3ccc(C#N)c(Cl)c3)c2C(=O)O1; test system = Chinese subjects; setting = 3 mg single dose; endpoint = urinary sodium excretion 0-24 h; result = 134 mmol
Compound = Cc1cn(-c2cc(NC(=O)c3ccc(C)c(Nc4nccc(-c5cccnc5)n4)c3)cc(C(F)(F)F)c2)cn1; test system = human patients; setting = dose not given, 12 to 6 months, caregiver distress, within group; scale = direction not given; endpoint = change in mean NPI score; result = -0.07
Compound = Cc1cc(-c2nc(C(=O)Nc3cc4oc(N5CCOCC5)nc4nc3N3CC[C@@H](O)C3)co2)ccn1; test system = A20 PCNSL xenograft, mouse, intracranial tumour; setting = oral, 100 mg/kg, two weeks; scale = baseline: vehicle; endpoint = median survival increase; result = 61%
Compound = c1ccc2c(c1)Nc1ccccc1S2; test system = CT26 tumour-bearing mice; setting = intraperitoneal, 100 mg/kg equivalents daily, day 7; endpoint = tumour volume; result = 813 mm³
Compound = COc1ccc([C@@H](O)c2cc(-c3ncnc4cc(N5CCOCC5)ccc34)c(F)cc2Cl)nn1; test system = mouse, orthotopic M15 xenograft; setting = 125 mg/kg, added: radiotherapy; scale = baseline: radiotherapy alone; endpoint = median survival extension; result = 50%
Compound = CN1CCN(S(=O)(=O)c2cc([N+](=O)[O-])ccc2N(CCOS(C)(=O)=O)CCOS(C)(=O)=O)CC1; test system = NSG mice, sample DC PDX; setting = intraperitoneal, 25 mg/kg weekly x3; endpoint = event-free survival; result = > 54 days
Compound = N.N.[Cl][Pt][Cl]; test system = KSN/Slc nude mice, SAS xenograft; setting = dose not given, day 4; endpoint = tumour volume; result = 189 mm3 and 90.8 mm3 and 171 mm3 and 178 mm3 and 348 mm3 and 53.1 mm3 and 76.8 mm3 and 109 mm3
Compound = CC(C)(O)c1cnc2ncc(-c3ccc(F)c(-c4c(F)cccc4C#N)c3)n2n1; assay = food-maintained responding; test system = Sprague-Dawley rat; setting = intraperitoneal, acute dependence model, added: diazepam pretreatment 30 min; scale = baseline: diazepam alone; endpoint = minimum effective dose; result = ≥ 0.03 mg/kg
Compound = CC(C)[C@@H](CS(=O)(=O)C(C)C)N1C(=O)[C@@](C)(CC(=O)O)C[C@H](c2cccc(Cl)c2)[C@H]1c1ccc(Cl)cc1; test system = mouse, orthotopic PDX; setting = 100 mg/kg, 5 days; endpoint = median survival; result = 34 days
Compound = CCCCC/C=C\C/C=C\C/C=C\C/C=C\CCCC(=O)NCCO; assay = mechanical hypersensitivity, electronic von Frey; test system = mouse, CFA inflammatory pain; setting = i.p., 20 mg/kg; endpoint = duration of action; result = 1 h
Compound = COc1ccc(-c2ccc3ncc4c(c3c2)n([C@@H]2CCN(C)CC2(F)F)c(=O)n4C)cn1; test system = mouse, sample A orthotopic PDX; setting = 7.5 mg/kg x 10, added: 2.3 Gy radiation; endpoint = median survival; result = 408 days
Compound = Cc1cccc(C)c1NC(=O)C1CCCCN1 (stereo not shown); assay = hot plate; test system = Sprague-Dawley rat, male, sciatic nerve; setting = 30 mM; endpoint = sensory maximum possible effect; result = 100%
Compound = CCCCCN1C[C@H](O)[C@@H](O)[C@H](O)[C@@H]1CO; test system = Hexb-/- mice, male; setting = 300 mg/kg/day; endpoint = median survival; result = 159 days
Compound = C[C@H]1O[C@@H](O[C@H]2CC[C@@]3(C)[C@@H](CC[C@]4(C)[C@@H]3C=C[C@]35OC[C@@]6(CCC(C)(C)C[C@H]63)[C@@H](O)C[C@]54C)[C@]2(C)CO)[C@H](O)[C@@H](O[C@@H]2O[C@H](CO)[C@@H](O)[C@H](O)[C@H]2O)[C@H]1O; test system = Mus musculus, pair-fed, AAV8-TBG-Null vector, plasma; setting = oral, high dose, 5 h; endpoint = ALT activity; result = 18.8 U/L and 20 U/L and 25.5 U/L and 18.1 U/L and 19.6 U/L and 20.4 U/L
Compound = CC[C@H](C)[C@@H]1NC(=O)[C@@H]2CCCN2C(=O)[C@H](CC(C)C)NC(=O)[C@H](CC(C)C)NC(=O)CNC(=O)[C@@H](NC(=O)[C@@H](NC(=O)[C@H](CC(=O)O)NC(=O)CNC(=O)[C@@H](NC(=O)[C@H](C)NC(=O)CNC(=O)[C@H](CCCCN)NC(=O)[C@H](CC(C)C)NC(=O)[C@H](CC(C)C)NC(=O)[C@H](CCCCN)NC(=O)CNC(=O)[C@@H](NC(=O)[C@@H](N)CC(C)C)C(C)C)C(C)C)C(C)C)CSSC[C@@H](C(=O)O)NC1=O; assay = RNA-seq, item: Rell2; test system = mouse, traumatic brain injury model, frontal cortex and hippocampus; setting = dose not given; scale = baseline: TBI alone; endpoint = log2 fold change; result = -0.873
Compound = CCCCC1(CCCC)CN(c2ccccc2)c2cc(SC)c(OCC(=O)N[C@@H](C(=O)NCC(=O)O)c3ccccc3)cc2S(=O)(=O)C1; assay = item: LDL cholesterol; test system = human, serum; setting = 5 mg once daily, day 8; endpoint = serum LDL-C; result = 97.2 mg/dL
Compound = O=C(O)/C=C/C(=O)O.Oc1cccc2[nH]cc(CCNCc3ccccc3)c12; test system = C57BL/6J mice; setting = subcutaneous, 0.1 mg/kg, 30 min; endpoint = distance travelled; result = 2900 ± 371 cm
Compound = CCCCCCCCCCCCCC1OC(=O)/C1=C\CCCCC(N)=O (stereo not shown); assay = enzyme activity, inhibitor; test system = membrane proteomes of lymphoblastoid cell lines; setting = 1 µM, 30 min, 37 °C; endpoint = PS lipase activity; result = decreased
Compound = C=CC(=O)N[C@H]1C=C(C)c2c(-c3cnc4ccccc4c3)c3c(N)ncnc3n2C1; test system = NCI-H2073 parental xenograft (EGFR wild-type), BALB/c nude mice; setting = 50 mg/kg once daily, 21 days; endpoint = tumour growth inhibition; result = 69.2%

Excerpt of the above:
Compound = CN1CCN(S(=O)(=O)c2cc([N+](=O)[O-])ccc2N(CCOS(C)(=O)=O)CCOS(C)(=O)=O)CC1; test system = NSG mice, sample DC PDX; setting = intraperitoneal, 25 mg/kg weekly x3; endpoint = event-free survival; result = > 54 days
Compound = N.N.[Cl][Pt][Cl]; test system = KSN/Slc nude mice, SAS xenograft; setting = dose not given, day 4; endpoint = tumour volume; result = 189 mm3 and 90.8 mm3 and 171 mm3 and 178 mm3 and 348 mm3 and 53.1 mm3 and 76.8 mm3 and 109 mm3
Compound = CC(C)(O)c1cnc2ncc(-c3ccc(F)c(-c4c(F)cccc4C#N)c3)n2n1; assay = food-maintained responding; test system = Sprague-Dawley rat; setting = intraperitoneal, acute dependence model, added: diazepam pretreatment 30 min; scale = baseline: diazepam alone; endpoint = minimum effective dose; result = ≥ 0.03 mg/kg
